Literature values, collected from citations in different studies.
Compare with care: the assays were run in different laboratories. Numbers after ± are the reported error.

SMILES | tested on | test | system | setting | endpoint | result
CCC(C)NC(=O)CSc1nnc(Nc2ccc(C(C)C)cc2)s1 (centres unmarked) | – | – | mouse plasma | – | half-life | > 1.67 h
O=C1N=C(Nc2ccccc2)S/C1=C\c1ccc2ncccc2c1 | CDK4/6 | kinase activity, inhibitor | – | – | IC50 | 35 nM
c1ccc2c[n+](CCCCCCCC[n+]3ccc4ccccc4c3)ccc2c1 | – | – | rat, plasma | intramuscular, 5% of LD50 | Cmax | 100 nM
CC(C)n1ncc2cnc(Nc3cc(C(N)=O)n(C)c3)nc21 | CDK4/6 | kinase activity, inhibitor | – | – | IC50 | 7.8 nM
NCCNCCSc1ccccc1 | – | – | urine | 1 µg/mL, three freeze-thaw cycles | freeze-thaw stability | 90.7 ± 2.07 % remaining
